Experimental data pooled from the literature.
Each numbered part is a random draw from the data of one study; scales do not carry over between parts.

Set 1
Target: RNA binding protein fox-1 homolog 2, RRM domain, GST-SBP tag (RBFOX2, Homo sapiens, UniProt O43251-10, residues 100-194)
Technique: RNA Bind-n-Seq
Form: RNA
Sample: in vitro
Concentration: 365 nM
Setting: natural RNA segment, single round, ends assumed
Reference: no-protein control
Reading: higher = stronger binding
Constant ends, left off below: GGGAGUUCUACAGUCCGACGAUC … UGGAAUUCUCGGGUGCCAA
Residues (chain): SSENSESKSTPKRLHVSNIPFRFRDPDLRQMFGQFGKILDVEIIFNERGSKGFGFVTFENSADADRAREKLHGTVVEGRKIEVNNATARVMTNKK
| Sequence | RBNS enrichment (R) |
| --- | --- |
| AUUUUUUAAUUUAACUUUUUUUUAAAUAUUGGUAAUAGGUCGGCAACAGCAACUAUAGAAGUACAACUCAAUAGAUGGCAUUAAAACAUAUUGUAGUGUGGAUAUAUAUU | 0.471 |
| AAUCCGUAGUUUGUGGGUAUCAGUUGCGGUAGAGAUGCAACAUUUGUGACUCUGUUGCUAACGGUUACCACUUCCGAUCGCCCUGUACAUACAUAUGCCGUAAGGCGCAA | 0.249 |
| AUUUUAAGUACAACUUUUCAGGCUAGUUACUGUGAUGGACAUUGAGGUGUUUGUAGAACUGACUCUUAUAUAGUAAGUAAUAAUGUUUCCUUUAAAAUAAUUGGGCCAUC | 0.828 |
| GCUGAUCAGAAUUUUACCAAAAUUCAGAACAUCCUCCAAUUCCACAGUCUCUGGGAGACUUUCCCUAAGAGGCGACUUCCUCUCCAGCCUUCUCUCUCUGGUCAGGCCCA | 0.467 |
| AGUAGAUGGUUGCCAUGAUUGCAUCAGAGACCUGGGCCAUGGCUACCAGCUUCUGGGGCUCACUGCAGUCUUCCCUGGGUCUUCCCUUCAAAUGCCCAUGGCGUUUAUCC | 0.224 |
| GAGGAAAGAGAAAACUCUGGGGUCAGGGAGAGACCCUACCCCCACCUAAUUAUCCAGCAUAUAUGUAAGAAACAUAGCAGCGAUGGUAUUCGAUCUGUGCCAUGACUCUU | 0.545 |
| UCAGAUUAAGCUGUUACUGAGUGAGACACGAGAAGAAUGGUGUUCGCUGGUCUGUCGGCUGUGUUCCUCUUAGUCAUCCUUGUGUUAAUGACAGGCAGUGGCUGGGAUCU | 0.462 |
| GUCUUUUGAAUCUAAAAUCUUGGAAGAAACCAAAUUUUUCAAUGAUGCUAUUGAAACAUACAAAGGUAGACCUUUUGACUUUAAACAGUUAAUAACGAAUGCUGUUUCAA | 0.388 |
| AAAUCAAAUAGAAUCUUAUAUCUGUAUGUUAAAAUAGAGCACUUACCUGAAGUCAGUGGCCUGGAUCAUAGCCCUGGAUCAUUUCCCAGUCUGUCCUGUGCUGUGUGACC | 0.923 |
| GCUUUUCUCCAUCUGGGGACAGUCCUACUCCAAGAACACUGCACACCAGCUCCUCACACAGAUCCCACUUACUCUUUUUUUUUUUUUCAGAGACCACAGACCACAGUGAU | 0.477 |
| CAAGCACUUUUCCAUCCCUGGCGGGAUGGGUGGAUAGAACAUUUUUUUUAUUCAGCAUACAUUUUCUUUAUGUAGGAGCAGGAAUCGAACAAGCCUCUGUGAAUAUUUUC | 0.639 |
| CCUCCCACUUGGUCCCACCCACGACACGUGGGAAUUGUGGGAGCUACAAUUCAAGAUGAGAUUUGGAUGGGACACAGCCAAACCAUAUCAAUAGGUAUUAUUUUAUCCCC | 0.384 |

Set 2
Target: Fragile X messenger ribonucleoprotein 1, C-terminal low-complexity region (Fmr1, Mus musculus, UniProt P35922)
Technique: RNA Bind-n-Seq
Form: RNA
Sample: in vitro
Concentration: 200 nM
Setting: whole 134-nt RNA, ends assumed
Together with: 150 mM LiCl
Reference: input library
Reading: higher = stronger binding
Library: 7-deaza-guanosine replaces G
Constant ends, left off below: GGGAGUUCUACAGUCCGACGAUC … UGGAAUUCUCGGGUGUCAAGG
| Sequence | log2 enrichment |
| --- | --- |
| AGUCCUGUGCUACACAUCGUAUGUACCGAAUCGGGUUUUUGGGUUUUUUUGGGAGGGAAAGUAUUAUGUUACGCCGUUCGGAUCUGCACU | -0.581 |
| UUCGUUUUUUUCCUUAGUCUGAAGUUGCAGCCGGAGUGAAGAAGAGCGGACCGCUGCCCAGUGCUGAGGUAGAGUGUCGGAUCUGUUUUC | -2.98 |
| AGUCCUGUGCUACACAUCGUAUGUACCGAAUCGGUUUUUGGGUUUUUGGGUUUUUGGAAAGUAUUAUGUUACGCCGUUCGGAUCUGCACU | -1.8 |
| CCUGUGCUACACAUCGUAUGUACCGAAUCGGGGAAAAAAGGGAAAAAAGGAAAAAAGGGGAAAGUAUUAUGUUACGCCGUUCGGAUCUGC | 0.315 |
| GCAGGAAGUAAAAACAAAUGGAAAUGCUGCGGAUAGUGGCAGGGGUGGGGGUUGCUAAGGAAAGGGUGGGAUGGGAGUGGGUAAAGAGUU | 1.9 |
| UCCUCAAGUCCUGUGCUACACAUCGUAUGUACCGAAUCGGAGGUGGAAAGGAAAGUAUUAUGUUACGCCGUUCGGAUCUGCACUUCCAGC | -1.02 |
| UCAAGUCCUGUGCUACACAUCGUAUGUACCGAAUCGGAAAGGAAAGGGGAAAGGAAAGUAUUAUGUUACGCCGUUCGGAUCUGCACUUCC | -0.876 |
| CAAGUCCUGUGCUACACAUCGUAUGUACCGAAUCGGAAAAAGGUUUUUGGUUUGGAAAGUAUUAUGUUACGCCGUUCGGAUCUGCACUUC | -2.95 |
| GUCCUGUGCUACACAUCGUAUGUACCGAAUCAAAUUUAAAUUUUUAAACCCCCCCAAAAAAGUAUUAUGUUACGCCGUUCGGAUCUGCAC | 1.65 |
| CACAGACAACACGCACCCACACAGACACAGAGGGAAAGGGUUGGGAUGGGGACAGGGUGCACAGCAGGGCGGGGUAGGACCCCAGCCCCU | -0.885 |
| GUCCUGUGCUACACAUCGUAUGUACCGAAUCGGGAAAAAGGAAAAAGGGGAAAAAGGGAAAGUAUUAUGUUACGCCGUUCGGAUCUGCAC | 0.0869 |

Set 3
Target: Sal-like protein 4, full length isoform B (SALL4, Homo sapiens, UniProt Q9UJQ4-2, residues 1-616)
Technique: universal PBM
Form: double-stranded DNA, one strand shown
Sample: in vitro
Concentration: not given
Setting: 8-mer, flanks averaged, mean of replicates
Reading: higher = stronger binding
Target sequence (chain): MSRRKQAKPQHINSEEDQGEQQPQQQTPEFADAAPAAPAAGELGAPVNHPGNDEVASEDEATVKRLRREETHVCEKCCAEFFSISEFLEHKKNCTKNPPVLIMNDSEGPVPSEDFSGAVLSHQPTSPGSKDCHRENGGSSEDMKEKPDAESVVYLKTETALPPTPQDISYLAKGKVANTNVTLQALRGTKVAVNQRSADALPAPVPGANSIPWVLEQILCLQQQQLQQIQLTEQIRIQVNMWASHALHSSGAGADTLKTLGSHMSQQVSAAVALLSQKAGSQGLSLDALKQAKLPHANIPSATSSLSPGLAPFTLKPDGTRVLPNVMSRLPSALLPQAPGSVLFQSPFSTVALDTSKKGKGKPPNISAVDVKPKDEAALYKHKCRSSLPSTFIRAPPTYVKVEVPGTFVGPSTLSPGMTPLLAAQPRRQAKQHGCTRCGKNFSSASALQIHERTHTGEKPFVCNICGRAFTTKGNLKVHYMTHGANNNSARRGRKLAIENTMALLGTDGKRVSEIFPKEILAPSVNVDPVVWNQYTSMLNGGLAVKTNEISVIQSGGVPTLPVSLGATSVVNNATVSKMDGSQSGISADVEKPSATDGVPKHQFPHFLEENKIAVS
| Sequence | E-score |
| --- | --- |
| GAGCACCA | -0.0631 |
| CAGCCCCC | -0.285 |
| GGTGTTCA | -0.026 |
| AATGCGTA | 0.213 |
| GGAAGGCC | -0.276 |
| AGTGACCG | -0.222 |
| ACACATGT | 0.141 |
| CTGTAGTA | 0.272 |
| CTCGTCCC | -0.21 |
| CCATCGGG | -0.226 |
| AGAAGTTA | 0.15 |
| CTTGATTA | 0.139 |
| ATAATCTA | 0.36 |
| AACTAACA | 0.195 |
| GGGGTTCA | -0.228 |
| GAATGGAA | -0.0139 |
| CCTGCAGC | -0.0703 |
| CCGCTACG | -0.32 |
| AGCATCCG | -0.301 |
| ATTAACCA | 0.105 |
| AAGTAGGG | 0.0648 |
| GCCCTCGA | -0.118 |
| GGCCACAA | -0.252 |
| CCCCCGAC | -0.0697 |
| CCGTTTTC | -0.187 |

Set 4
Target: Histone acetyltransferase KAT6A, winged helix 2, GST fusion (KAT6A, Homo sapiens, UniProt Q92794, residues 85-181)
Technique: protein binding microarray
Form: double-stranded DNA, one strand shown
Sample: in vitro
Concentration: not given
Setting: 8-mer, flanks averaged, mean of 2 arrays, mostly near background
Reference: not given
Reading: higher = stronger binding
Residues (chain): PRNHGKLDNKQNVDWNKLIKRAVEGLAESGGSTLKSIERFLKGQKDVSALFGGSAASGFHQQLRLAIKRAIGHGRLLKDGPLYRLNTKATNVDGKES
| Sequence | E-score |
| --- | --- |
| AAAGGCAG | -0.00626 |
| ACATCGAT | -0.212 |
| CTAGACCA | -0.296 |
| CCTCAAGC | 0.0653 |
| CACACTGC | 0.039 |
| AGGCGCCC | 0.0794 |
| GCCGGGCA | 0.129 |
| CAAGTATG | -0.0595 |
| ATTTATAA | 0.261 |
| AAATGACG | -0.142 |
| GACGCGAA | 0.0406 |
| CGAGTGCA | 0.154 |
| TAGCAAGA | -0.00067 |
| CAATTCTC | 0.0306 |
| ACGTGGTA | -0.0806 |
| AACATTTG | -0.107 |
| CTGGTAAG | -0.0366 |
| CTGAAGCA | 0.1 |
| CTCACGAA | 0.142 |
| TAAACCTA | -0.0852 |
| AGCCCCTA | -0.155 |
| TCCGTCAA | -0.101 |
| GTCCTGGA | 0.0555 |
| GTGCAAAA | 0.0595 |

A few entries again (set 2):
| Sequence | log2 enrichment |
| --- | --- |
| CACAGACAACACGCACCCACACAGACACAGAGGGAAAGGGUUGGGAUGGGGACAGGGUGCACAGCAGGGCGGGGUAGGACCCCAGCCCCU | -0.885 |
| UUCGUUUUUUUCCUUAGUCUGAAGUUGCAGCCGGAGUGAAGAAGAGCGGACCGCUGCCCAGUGCUGAGGUAGAGUGUCGGAUCUGUUUUC | -2.98 |
| UCCUCAAGUCCUGUGCUACACAUCGUAUGUACCGAAUCGGAGGUGGAAAGGAAAGUAUUAUGUUACGCCGUUCGGAUCUGCACUUCCAGC | -1.02 |
| GUCCUGUGCUACACAUCGUAUGUACCGAAUCAAAUUUAAAUUUUUAAACCCCCCCAAAAAAGUAUUAUGUUACGCCGUUCGGAUCUGCAC | 1.65 |
| UCAAGUCCUGUGCUACACAUCGUAUGUACCGAAUCGGAAAGGAAAGGGGAAAGGAAAGUAUUAUGUUACGCCGUUCGGAUCUGCACUUCC | -0.876 |
| GCAGGAAGUAAAAACAAAUGGAAAUGCUGCGGAUAGUGGCAGGGGUGGGGGUUGCUAAGGAAAGGGUGGGAUGGGAGUGGGUAAAGAGUU | 1.9 |
| CAAGUCCUGUGCUACACAUCGUAUGUACCGAAUCGGAAAAAGGUUUUUGGUUUGGAAAGUAUUAUGUUACGCCGUUCGGAUCUGCACUUC | -2.95 |
| AGUCCUGUGCUACACAUCGUAUGUACCGAAUCGGGUUUUUGGGUUUUUUUGGGAGGGAAAGUAUUAUGUUACGCCGUUCGGAUCUGCACU | -0.581 |
| GUCCUGUGCUACACAUCGUAUGUACCGAAUCGGGAAAAAGGAAAAAGGGGAAAAAGGGAAAGUAUUAUGUUACGCCGUUCGGAUCUGCAC | 0.0869 |
| CCUGUGCUACACAUCGUAUGUACCGAAUCGGGGAAAAAAGGGAAAAAAGGAAAAAAGGGGAAAGUAUUAUGUUACGCCGUUCGGAUCUGC | 0.315 |
